Assay results of several laboratories.
Protocols differ between the studies behind these lines. Numbers after ± are the reported error.

CC(C)(C)C(=O)OCOP(=O)(OCOC(=O)C(C)(C)C)C1CCCN(O)C1=O (stereo not shown)  log GI50 (HCC 2998): -6.35 log M
CCCCCCCCCCCCCCCCCC(=O)NC[C@H]1CC[C@H](C(=O)N[C@@H](CCC(=O)NCCCOCCOCCOCCCNC(=O)COCC(=O)N[C@@H](Cc2ccc(O)cc2)C(=O)NC(C)(Cc2ccccc2)C(=O)N[C@@H](CC(C)C)C(=O)N[C@@H](CCCC)C(=O)N[C@@H](CCCNC(=N)N)C(=O)N2CCC[C@H]2C(=O)N[C@@H](CCCNC(=N)NC)C(=O)N[C@@H](CC(N)=O)C(N)=O)C(=O)O)CC1 (stereo partly shown)  activation (MRGPRX2 (Homo sapiens, UniProt Q96LB1); GPCR signalling, agonist; 1 µM): 129%
CC(C)[C@H]1NC(=O)C[C@H]2/C=C/CCSSC[C@@H](NC1=O)C(=O)N[C@H](Cc1cccc3ccccc13)C(=O)NCC(=O)O2  inhibition (Cyclin-dependent kinase 4, with cyclin D3 (CDK4, Homo sapiens, UniProt P11802); enzyme activity, inhibitor; 10 µM): 14.6%
Cc1ccc(N2CC3CCC(C2)N3C)cc1C(=O)N[C@H](C)c1cc(-c2cnn(C)c2)nc2ccccc12  remaining activity (Cathepsin B (CTSB, Homo sapiens, UniProt P07858); enzyme activity; 10 µM): 102%
CCO[C@H]1[C@H](O)[C@@H](N)[C@@H](O[C@H]2[C@H](O[C@@H]3O[C@H](CO)[C@@H](O[C@H]4O[C@@H](CN)[C@@H](O)[C@H](O)[C@H]4N)[C@H]3O)[C@@H](O)[C@H](N)C[C@@H]2N)O[C@@H]1CO  specific binding (Htr1b (Rattus norvegicus, UniProt P28564); radioligand binding; 10 µM, 1% DMSO): 0%
COc1ccccc1-c1n[nH]c2nc(NC3CCN(C(=O)Cc4ccc(F)cc4F)CC3)ncc12  relative abundance (bead binding, competition bead pull-down, measured: LINJ.29.0890; Leishmania donovani extract; 10 µM; reference: vehicle): 1.21
CCCCC/C=C\C/C=C\C/C=C\C/C=C\CCCC(=O)NCCc1ccc(O)c(O)c1  Hill coefficient (Trpv1 (Mus musculus, UniProt Q704Y3, E571A); patch clamp; E571A mutant channel): 2.19 ± 0.09
C[C@H](NCc1ccc(-c2ccc(C(F)(F)F)cc2)cc1)C(N)=O  inhibition (MAOB (Homo sapiens, UniProt P27338); enzyme activity, SafetyScreen panel; 1 µM, added: 50.0 µM kynuramine): 99%
O=C1NC(=O)c2c1c1cc(F)c[n+]3c1c1c2c2cc(O)ccc2[n]1[Ru-4]312([N]=C=S)[S+]3CC[S+]1CC[S+]2CC3 (stereo not shown)  remaining activity (FLT1 (Homo sapiens, UniProt P17948); enzyme activity; 100 nM, human enzyme, added: 10 µM ATP; reference: untreated): 17%
N[C@H](C(=O)N1CCCC1)C1CCN(c2nccc3c(-c4ncc(Cl)cc4Cl)cccc23)CC1  melting temperature (Luciferin 4-monooxygenase (Photinus pyralis, UniProt P08659); thermal shift; 0.00302 µM, control protein): 51.7 °C
CS(C)(=O)=Nc1ccc(-c2ccc(-c3nc4cc(O[C@@H]5CO[C@H]6[C@@H]5OC[C@H]6O)[nH]c4cc3F)cc2)cc1  inhibition (PAK5 (Homo sapiens, UniProt Q9P286); enzyme activity, inhibitor; 10 µM): 9%
COc1ccccc1-c1n[nH]c2nc(N[C@H]3CC[C@H](NS(=O)(=O)CC(C)C)CC3)ncc12  relative abundance (bead binding, competition bead pull-down, measured: LMJF.36.6910; Leishmania donovani extract; 10 µM; reference: vehicle): 1.33
CCOC(=O)[C@@H]1Cc2c(cc([N+](=O)[O-])cc2[N+](=O)[O-])[C@H](O)[C@]12C(=O)Nc1ccc(Br)cc12  remaining binding (PIK3CG (Homo sapiens, UniProt P48736); binding, competition with immobilised ligand; 0.1 µM): 58%
O=C1NC2(CC2)COc2ncc(F)cc2[C@H]2COCCN2c2ccn3ncc1c3n2  serum total bilirubin (Sprague-Dawley rat, female, serum; oral, 2.5 mg/kg/day, end of recovery, 4-week subacute toxicity): 1.4 ± 0.5 µmol/L
CC(C)CC(C(=O)N1CC2(CC1C#N)C(=O)Nc1ccccc12)N(C)C(=O)c1cc2c(F)cc(F)c(F)c2[nH]1 (stereo not shown)  Hill slope (Caspase-3 (CASP3, Homo sapiens, UniProt P42574)): -2.02
CN(C)[C@H]1C[C@@]23CC[C@@]4(O2)C(=CC[C@]2(C)[C@@H](c5ccc6ccncc6c5)CC[C@H]24)C=C3[C@@H](O)[C@@H]1O  inhibition (PIP4K2B (Homo sapiens, UniProt P78356); ATP probe labelling, inhibitor, KiNativ profiling; 1 µM): -10.4%
CCCCNC(=O)c1ccc2nc(CC)c(N(C)Cc3ccc(OC)cc3)n2c1  activity (ache (Electrophorus electricus, UniProt O42275); inhibitor; 5 µM): active
O=C(N[C@@H]1c2ccccc2C[C@H]1N1CCCC1)c1ccc(-c2ccnc3[nH]ccc23)nc1  remaining binding (PRKX (Homo sapiens, UniProt P51817); binding, competition with immobilised ligand; 3 µM): 4.6%
Cc1sc2c(c1C)C(c1ccc(Cl)cc1)=NC(CC(=O)OC(C)(C)C)c1nnc(C)n1-2 (stereo not shown)  remaining binding (HTR7 (Homo sapiens, UniProt P34969); ligand displacement, radioligand; 1 µM): 112%
